# Assay results pooled from the literature.
# ± gives the spread as reported.
SMILES,cell line,effect on,method,matrix,time,notes,CC50 [µM]
c1ccc(C(c2ccccc2)N2CCN(CCCC3(c4ccccc4)OCCO3)CC2)cc1,African green monkey cells,,,,5 days,,17.4
CC(C)/N=c1\cc2n(-c3ccc(Cl)cc3)c3ccccc3nc-2cc1Nc1ccc(Cl)cc1,African green monkey cells,,,,40 (unit not given),,> 2.5
CCOC(=O)C1=C(CN2CCC[C@@H]2C(=O)Nc2ccc(B(O)O)cc2)NC(c2nccs2)=N[C@H]1c1ccc(F)cc1Br,HepDES19,,MTS,,3 days,,32
NC(=O)c1cc(-c2ccsc2)cc(F)c1OCCc1cccc(F)c1,HepG2,,,,3 (unit not given),glucose medium,33 ± 3.9
CC[C@H]1CN2CC[C@H]1C[C@@H]2[C@@H](O)c1ccnc2ccc(OC)cc12,African green monkey cells,,,,5 days,,> 25.1
CC(C)(O)c1ccc2c(c1)C(=CCCN1CCC(O)(c3ccc(Cl)cc3)C(C)(C)C1)c1cccnc1CO2 (stereo not drawn),Huh-7-ACE2,,,,40 (unit not given),,8.4
CCC(CC)COC(=O)[C@H](C)N[P@](=O)(OC[C@H]1O[C@@](C#N)(c2ccc3c(N)ncnn23)[C@H](O)[C@@H]1O)Oc1ccccc1,Vero (eGFP),,,,15 h,,> 100
Nc1ccc2cc3ccc(N)cc3nc2c1,African green monkey cells,,,,5 days,,6.61
C=C(C)[C@@]12C[C@@H](COC(=O)c3ccccc3)[C@@]34OC5(O[C@@H]1[C@@H]3[C@@H]1O[C@]1(CO)[C@@H](O)[C@@]1(O)[C@H]4[C@H]([C@H](C)[C@@H]1OC(=O)c1ccccc1)[C@H](C)CCCCCC[C@H]5O)O2,MT4,cell viability,,,,,> 6.45
Cc1cscc1-c1ccc(OCCc2cccc(F)c2)c(C(N)=O)c1,HepG2,,,,3 (unit not given),human,37 ± 7.5
CC(C)CC(NC(=O)OCc1ccccc1)C(=O)NC(C(=O)NCC(=O)C=[N+]=[N-])C(C)C (stereo not drawn),Huh-7-ACE2,,,,40 (unit not given),,> 2.5
O=C(Nc1cc(F)c(F)c(F)c1)c1ccc(F)c(S(=O)(=O)NCc2cccc(B(O)O)c2)c1,HepDES19,,,,3 d,,19.4 ± 5
C=C1CC[C@@H]2[C@](C)(CO)[C@H](O)CC[C@@]2(C)[C@@H]1C/C=C1/C(=O)OC[C@H]1O,African green monkey cells,,,,5 days,,21.6
COc1ccc(CCOc2ccc(-c3ccsc3)cc2C(N)=O)cc1F,HepG2,,,galactose medium,3 (unit not given),,36 ± 24
COc1cc2c(cc1N1C[C@@H](C)N[C@@H](C)C1)N(C(=O)c1ccc(-c3ccc(-c4noc(C)n4)cc3C)cc1)CC2,Huh-7-ACE2,,,,40 (unit not given),,1.5
CN1CCCC(n2nc(Cc3ccc(Cl)cc3)c3ccccc3c2=O)CC1 (stereo not drawn),African green monkey cells,,,,5 days,,17.8
Cc1ccc(OCCc2ccc(C3CC3)cc2)c(C(N)=O)c1,HepG2,,,galactose medium,3 (unit not given),,8.8
CC(C)(C)NC(=O)N[C@H](C(=O)N1C[C@H]2[C@@H]([C@H]1C(=O)NC(CC1CCC1)C(=O)C(N)=O)C2(C)C)C(C)(C)C (stereo partly drawn),293T,,MTT,,24 h,,> 250
CNC(=O)[C@@]12C[C@@H]1[C@@H](n1cnc3c(NC)nc(C#Cc4ccc(Cl)s4)nc31)[C@H](O)[C@@H]2O,Vero 76,cytotoxicity,,,,,> 100
CC[C@H](NC(=O)[C@H](CS(=O)(=O)CC1CC1)N[C@@H](c1ccc(F)cc1)C(F)(F)F)C(=O)C(=O)NC1CC1,Huh-7-ACE2,,,,40 (unit not given),,> 2.5
CCc1ccc(OCCc2cccc(F)c2)c(C(N)=O)c1,HepG2,,,galactose medium,3 (unit not given),,20 ± 1.5
CC(C)[C@H](NC(=O)c1ccccc1NC(=O)c1ccccc1)C(=O)N[C@H](CO)C(C)C,293T,,MTT,,24 h,,> 250
CC(=O)c1cc(-c2ccoc2)ccc1OCCc1cccc(F)c1,HepG2,,,galactose medium,3 (unit not given),,24 ± 6
Cc1cccc(C)c1NC(=O)CN1CCN(CCCC(c2ccc(F)cc2)c2ccc(F)cc2)CC1,African green monkey cells,,,,5 days,,8.41
C[C@@H]1CN(c2ncc(C(O)CO)cc2Cl)CCN1c1nc2c(-c3cc(F)c(F)c(F)c3)cc(C(F)(F)F)cc2[nH]1 (stereo partly drawn),Huh-7-ACE2,,,,40 (unit not given),,> 2.5
COc1ccc(-c2ccc(OCCc3cccc(F)c3)c(C(N)=O)c2)cc1,HepG2,,,galactose medium,3 (unit not given),,> 100
COc1ccc2cc(-c3cc(-c4cc(Cl)cc(Cl)c4)nn3[C@@H](C)c3ccc(C(=O)NCCC(=O)O)cc3)ccc2c1,African green monkey cells,,,,5 days,,18.8
C=C(C)[C@]12C[C@@H](C)[C@@]34O[C@]5(CCCCCCC[C@H](C)[C@H]6[C@H](C)C(=O)[C@@](O)([C@H](O)[C@@]7(CO)O[C@H]7[C@H]3[C@H]1O5)[C@@H]64)O2,MT4,,CellTiter-Glo,,,,> 6.5
CCC(CC)COC(=O)[C@H](C)N[P@](=O)(OC[C@H]1O[C@@](C#N)(c2ccc3c(N)ncnn23)[C@H](O)[C@@H]1O)Oc1ccccc1,Huh-7-ACE2,,,,40 (unit not given),,0.98
COc1cc(/C=C/C(=O)CC(=O)/C=C/c2ccc(O)c(OC)c2)ccc1O,African green monkey cells,,,,5 days,,14.8
CC(=O)c1cc(-c2ccsc2)ccc1OCCc1cccc(F)c1,HepG2,,,galactose medium,3 (unit not given),,28 ± 1
Cc1cccc(/C=N/Nc2cc(N3CCOCC3)nc(OCCc3ccccn3)n2)c1,Huh-7-ACE2,,,,40 (unit not given),,> 2.5
Nc1ccn(C[C@@H](CO)OCP(=O)(O)O)c(=O)n1,African green monkey cells,,,,3 (unit not given),,> 317

# Excerpt of the above:
SMILES,cell line,effect on,method,matrix,time,notes,CC50 [µM]
O=C(Nc1cc(F)c(F)c(F)c1)c1ccc(F)c(S(=O)(=O)NCc2cccc(B(O)O)c2)c1,HepDES19,,,,3 d,,19.4 ± 5
C=C1CC[C@@H]2[C@](C)(CO)[C@H](O)CC[C@@]2(C)[C@@H]1C/C=C1/C(=O)OC[C@H]1O,African green monkey cells,,,,5 days,,21.6
